Experimental data gathered from unrelated publications.
Lines come from different studies, so protocols differ.
ABL1 F317I non-phosphorylated: Tyrosine-protein kinase ABL1, non-phosphorylated (ABL1, Homo sapiens, UniProt P00519, F317I)
UniProt P00519, sequence (whole entry, unmodified, looked up): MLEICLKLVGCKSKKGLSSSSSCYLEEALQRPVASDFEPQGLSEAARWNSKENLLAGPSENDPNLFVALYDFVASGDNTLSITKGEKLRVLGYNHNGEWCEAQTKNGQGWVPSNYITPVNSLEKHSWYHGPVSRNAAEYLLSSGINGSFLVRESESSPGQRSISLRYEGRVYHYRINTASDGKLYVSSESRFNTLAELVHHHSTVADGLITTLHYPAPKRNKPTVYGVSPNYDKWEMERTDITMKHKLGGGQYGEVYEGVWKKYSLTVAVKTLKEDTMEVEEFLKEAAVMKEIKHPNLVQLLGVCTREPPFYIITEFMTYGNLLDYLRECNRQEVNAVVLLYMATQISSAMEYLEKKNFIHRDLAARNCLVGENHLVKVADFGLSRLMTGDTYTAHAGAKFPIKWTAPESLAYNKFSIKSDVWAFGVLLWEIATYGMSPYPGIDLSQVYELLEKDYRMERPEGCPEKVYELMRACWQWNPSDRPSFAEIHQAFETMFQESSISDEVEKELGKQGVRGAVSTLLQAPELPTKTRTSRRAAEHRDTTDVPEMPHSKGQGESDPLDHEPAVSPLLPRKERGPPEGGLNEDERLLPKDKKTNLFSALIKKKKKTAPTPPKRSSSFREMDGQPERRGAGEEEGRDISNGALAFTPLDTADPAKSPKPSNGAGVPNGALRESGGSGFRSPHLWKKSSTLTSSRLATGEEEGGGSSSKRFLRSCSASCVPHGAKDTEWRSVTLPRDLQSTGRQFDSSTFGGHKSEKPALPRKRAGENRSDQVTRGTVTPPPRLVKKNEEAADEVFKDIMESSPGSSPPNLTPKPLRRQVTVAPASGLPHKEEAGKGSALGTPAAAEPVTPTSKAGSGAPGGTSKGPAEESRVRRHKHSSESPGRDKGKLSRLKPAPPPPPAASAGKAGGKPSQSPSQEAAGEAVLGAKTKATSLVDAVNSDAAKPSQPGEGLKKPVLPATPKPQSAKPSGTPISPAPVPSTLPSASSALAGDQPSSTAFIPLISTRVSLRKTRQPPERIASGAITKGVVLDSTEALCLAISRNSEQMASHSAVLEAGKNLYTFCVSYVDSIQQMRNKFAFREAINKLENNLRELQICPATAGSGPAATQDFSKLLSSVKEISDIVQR

SMILES = CNC(=O)C1CCN(c2cc(C)c(F)cc2NC(=O)c2ccc(-c3cc(O)ccc3C)c(C)c2)CC1; target = Tyrosine-protein kinase ABL1, phosphorylated (ABL1, Homo sapiens, UniProt P00519, F317L); assay = binding, competition with immobilised ligand; setting = 1 µM; remaining binding = 20%
SMILES = CC(C)=CC1OC(C)(C)C2C=C3C(=O)C(Cl)=CC(O)C3C3C(O)C4OC4C(=O)C132 (centres unmarked); target = Tyrosine-protein kinase ABL1, non-phosphorylated (ABL1, Homo sapiens, UniProt P00519, F317L); assay = cell-free assay, competition with immobilised ligand; setting = 10 µM; remaining binding = 94%
SMILES = C=CC(=O)N1CCCC(n2c(=O)c3ncccc3n(Cc3ccc(Oc4ccccc4)cc3)c2=O)C1 (centres unmarked); target = ABL1 F317I non-phosphorylated; assay = cell-free assay, competition with immobilised ligand; setting = 1 µM; remaining binding = 95%
SMILES = Cc1ccc(-c2c(/C=C(\C#N)C(=O)NC(C)C)n(CCCO)c3ncnc(N)c23)cc1; target = Tyrosine-protein kinase ABL1, phosphorylated (ABL1, Homo sapiens, UniProt P00519, M351T); assay = cell-free assay, competition with immobilised ligand; setting = 1 µM; remaining binding = 100%
SMILES = COc1cc(Nc2nccc(-c3cnn4nc(OC)ccc34)n2)cc(C(F)(F)F)c1; target = ABL1 F317I non-phosphorylated; assay = binding; setting = 1 µM; remaining binding = 100%
SMILES = Cc1cnc2nc1Nc1cccc(c1)COC/C=C/COCc1cc(ccc1OCCN1CCOCC1)N2; target = Tyrosine-protein kinase ABL1, phosphorylated (ABL1, Homo sapiens, UniProt P00519); assay = binding; setting = 0.1 µM; remaining binding = 60%
SMILES = CNC1C[S+]2CC[S+]3CC[S+](C1)[Ru-4]321([N]=C=S)[n]2c3ccc(OC)cc3c3c4c(c5cc(F)c[n+]1c5c32)C(=O)NC4=O (centres unmarked); target = ABL1 F317I non-phosphorylated; assay = KinomeScan; setting = 0.1 µM; how to read = reference: untreated; remaining binding = 92%
SMILES = C=CC(=O)N1CCc2ccc(-n3c(=O)ccc4cnc5ccc(-c6cnn(C)c6)cc5c43)cc21; target = Tyrosine-protein kinase ABL1, non-phosphorylated (ABL1, Homo sapiens, UniProt P00519); assay = KINOMEscan; setting = 1 µM; how to read = reference: DMSO control; remaining binding = 45%
